Published values collected from several papers.
Parts stem from different laboratories: compare values within a part only. Several values in a cell are separate wells, animals, samples, runs or records. Numbers after ± are the reported error.
Chain of UniProt Q13177 (whole entry, looked up): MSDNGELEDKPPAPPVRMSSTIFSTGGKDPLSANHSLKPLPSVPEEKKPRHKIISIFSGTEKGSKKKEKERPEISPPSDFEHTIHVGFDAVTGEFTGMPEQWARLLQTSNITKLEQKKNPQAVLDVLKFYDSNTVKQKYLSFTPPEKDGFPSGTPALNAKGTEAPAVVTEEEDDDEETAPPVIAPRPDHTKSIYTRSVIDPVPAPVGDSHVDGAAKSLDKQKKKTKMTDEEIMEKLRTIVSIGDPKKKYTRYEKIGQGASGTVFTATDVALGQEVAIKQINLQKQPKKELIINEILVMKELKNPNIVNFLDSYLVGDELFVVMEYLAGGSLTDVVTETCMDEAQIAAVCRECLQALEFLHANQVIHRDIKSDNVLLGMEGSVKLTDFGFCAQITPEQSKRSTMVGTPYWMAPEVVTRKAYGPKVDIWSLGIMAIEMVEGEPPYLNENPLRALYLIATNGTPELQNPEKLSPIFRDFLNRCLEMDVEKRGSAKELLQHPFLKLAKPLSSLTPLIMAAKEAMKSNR

Set 1
Compound: COCCCCCCC1CC2C(CCC3(C)C(O)CCC23)c2ccc(O)cc21 (centres unmarked)
The “mRNA level ratio” was 15.1 (A549; DNA microarray, item: GZMK; 10 µM; baseline: untreated cells).
The “mRNA level ratio” was 54.7 (SK-OV-3; microarray, item: CCL8; 10 µM; baseline: untreated).
It gave 6.3 for “mRNA level ratio” (SK-OV-3; microarray, item: GADD45A; 50 µM; baseline: untreated).
For SK-OV-3; DNA microarray, item: ACTB; 10 µM; baseline: untreated cells: “mRNA level ratio” read 0.772.
The “mRNA level ratio” was 2.21 (A549; microarray, item: ISG20L1; 50 µM; baseline: untreated).
It gave 1 for “mRNA level ratio” (A549; DNA microarray, item: CCL22; 50 µM; baseline: untreated cells).
It gave 1.14 for “mRNA level ratio” (A549; microarray, item: ADAMTS14; 50 µM; baseline: untreated).
PANC-1; microarray, item: ADAMTS14; 10 µM; baseline: untreated — “mRNA level ratio”: 0.757.
It gave 0.46 for “mRNA level ratio” (PANC-1; microarray, item: ADAMTS8; 50 µM; baseline: untreated).
It gave 0.771 for “mRNA level ratio” (A549; microarray, item: ACTA2; 50 µM; baseline: untreated).

Set 2
Compound: CNc1ncc2cc(-c3cc(OC)cc(OC)c3Cl)c(=O)n(CCc3ccc(NC(=O)C(C#N)=CC(C)(C)N4CCOCC4)cc3)c2n1
Effect on: kinase activity
The inhibition was 0% (CHEK1 (Homo sapiens, UniProt O14757); 0.1 µM).
It gave 2% for inhibition (SYK (Homo sapiens, UniProt P43405); 0.1 µM).
Aurora kinase B (AURKB, Homo sapiens, UniProt Q96GD4); 0.1 µM — inhibition: -2%.
It gave 6% for inhibition (MAPK8 (Homo sapiens, UniProt P45983); 1 µM).
PTK2 (Homo sapiens, UniProt Q05397); 1 µM — inhibition: 4%.
For STK10 (Homo sapiens, UniProt O94804); 1 µM: inhibition read 9%.
PLK4 (Homo sapiens, UniProt O00444); 0.1 µM — inhibition: 0%.
For MARK4 (Homo sapiens, UniProt Q96L34); 1 µM: inhibition read 0%.
It gave 1% for inhibition (MELK (Homo sapiens, UniProt Q14680); 0.1 µM).
The inhibition was -5% (ROCK1 (Homo sapiens, UniProt Q13464); 1 µM).
For TNIK (Homo sapiens, UniProt Q9UKE5); 0.1 µM: inhibition read 1%.
For PIM3 (Homo sapiens, UniProt Q86V86); 0.1 µM: inhibition read 3%.

Set 3
Structure (SMILES): NC/C(=C\F)COc1ccc(Cn2c(=S)[nH]c(=O)c3[nH]cnc32)cc1
Effect on: enzyme activity
AOC3: Amine oxidase [copper-containing] 3 (AOC3, Homo sapiens, UniProt Q16853)
Chain of UniProt Q16853 (whole entry, looked up): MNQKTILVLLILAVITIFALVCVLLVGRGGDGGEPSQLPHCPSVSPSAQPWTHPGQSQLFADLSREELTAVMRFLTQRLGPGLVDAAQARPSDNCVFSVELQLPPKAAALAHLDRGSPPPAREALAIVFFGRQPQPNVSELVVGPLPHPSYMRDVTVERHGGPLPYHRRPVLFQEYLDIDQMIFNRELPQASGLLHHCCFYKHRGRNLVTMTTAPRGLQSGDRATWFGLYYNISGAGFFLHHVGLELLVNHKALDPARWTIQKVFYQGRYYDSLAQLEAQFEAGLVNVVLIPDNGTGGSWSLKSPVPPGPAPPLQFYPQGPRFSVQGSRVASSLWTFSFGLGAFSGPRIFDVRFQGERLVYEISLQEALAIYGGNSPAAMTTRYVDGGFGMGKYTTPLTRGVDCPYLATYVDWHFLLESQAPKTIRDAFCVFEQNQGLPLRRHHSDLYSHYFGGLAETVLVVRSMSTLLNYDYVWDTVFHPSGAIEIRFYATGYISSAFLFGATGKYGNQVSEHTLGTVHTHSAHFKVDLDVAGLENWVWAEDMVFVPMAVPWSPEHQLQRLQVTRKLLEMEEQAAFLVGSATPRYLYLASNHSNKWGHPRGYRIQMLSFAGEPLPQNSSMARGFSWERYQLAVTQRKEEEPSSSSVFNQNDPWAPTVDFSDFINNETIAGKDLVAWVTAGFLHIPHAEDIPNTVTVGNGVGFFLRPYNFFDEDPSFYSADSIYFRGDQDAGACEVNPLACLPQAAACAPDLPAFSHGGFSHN
MPO: Myeloperoxidase (MPO, Homo sapiens, UniProt P05164)
Chain of UniProt P05164 (whole entry, looked up): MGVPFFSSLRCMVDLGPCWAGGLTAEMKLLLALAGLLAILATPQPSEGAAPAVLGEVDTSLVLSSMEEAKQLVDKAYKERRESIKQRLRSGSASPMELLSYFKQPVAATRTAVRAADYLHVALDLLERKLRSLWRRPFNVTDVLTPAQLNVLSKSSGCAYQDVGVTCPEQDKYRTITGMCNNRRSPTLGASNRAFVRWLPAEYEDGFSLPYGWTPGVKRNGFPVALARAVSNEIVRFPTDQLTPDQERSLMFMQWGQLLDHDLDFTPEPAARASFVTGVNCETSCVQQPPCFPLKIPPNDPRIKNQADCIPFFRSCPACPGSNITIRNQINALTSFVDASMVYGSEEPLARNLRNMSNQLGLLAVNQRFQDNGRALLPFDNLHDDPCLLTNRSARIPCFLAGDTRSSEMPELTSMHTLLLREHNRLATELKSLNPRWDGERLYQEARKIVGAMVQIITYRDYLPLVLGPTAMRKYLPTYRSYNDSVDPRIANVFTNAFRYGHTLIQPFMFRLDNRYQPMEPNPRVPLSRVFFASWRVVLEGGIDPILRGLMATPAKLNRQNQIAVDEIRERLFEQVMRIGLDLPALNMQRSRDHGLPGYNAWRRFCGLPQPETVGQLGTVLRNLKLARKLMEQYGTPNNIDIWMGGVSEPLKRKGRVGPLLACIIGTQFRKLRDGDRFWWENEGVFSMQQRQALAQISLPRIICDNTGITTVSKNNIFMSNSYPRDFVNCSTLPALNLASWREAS
AOC3; inhibitor, fluorescence; 37 nM — inhibition: 101%.
The inhibition was 102% (AOC3; inhibitor, fluorescence; 0.3333 µM).
For AOC3; inhibitor, fluorescence; 0.1235 µM: inhibition read 100%.
The inhibition was 16.7% and 12.3% (MPO; 3.704 µM).
For AOC3; inhibitor, fluorescence; 1.111 µM: inhibition read 100%.
It gave 18% for inhibition (MPO; inhibitor, fluorescence; 10 µM).
For MPO; inhibitor, fluorescence; 13.7 nM: inhibition read -1.41%.

Set 4
Compound: CC[C@@]1(c2ccccc2)C2=C(CC(C)(C)CC2=O)Nc2n[nH]cc21
Tested at: 1 µM
For PTK2 (Homo sapiens, UniProt Q05397); kinase binding, KINOMEscan; baseline: DMSO control: remaining binding read 100%.
It gave 97% for remaining binding (IRAK1 (Homo sapiens, UniProt P51617); kinase binding, KINOMEscan; baseline: DMSO control).
The remaining binding was 100% (EPHA2 (Homo sapiens, UniProt P29317); binding, competition with immobilised ligand).
The remaining binding was 100% (PAK2 (Homo sapiens, UniProt Q13177); kinase binding, KINOMEscan; baseline: DMSO control).
GRK1 (Homo sapiens, UniProt Q15835); binding, competition with immobilised ligand — remaining binding: 82%.
It gave 100% for remaining binding (RIPK2 (Homo sapiens, UniProt O43353); kinase binding, KINOMEscan; baseline: DMSO control).
It gave 94% for remaining binding (SIK3 (Homo sapiens, UniProt Q9Y2K2); binding, competition with immobilised ligand).
It gave 100% for remaining binding (EPHA7 (Homo sapiens, UniProt Q15375); kinase binding, KINOMEscan; baseline: DMSO control).
It gave 97% for remaining binding (CSNK2A1 (Homo sapiens, UniProt P68400); kinase binding, KINOMEscan; baseline: DMSO control).
It gave 84% for remaining binding (ULK3 (Homo sapiens, UniProt Q6PHR2); kinase binding, KINOMEscan; baseline: DMSO control).
CLK3 (Homo sapiens, UniProt P49761); binding, competition with immobilised ligand — remaining binding: 97%.
MERTK (Homo sapiens, UniProt Q12866); kinase binding, KINOMEscan; baseline: DMSO control — remaining binding: 100%.
For MKNK2 (Homo sapiens, UniProt Q9HBH9); binding, competition with immobilised ligand: remaining binding read 100%.
It gave 98% for remaining binding (TGFBR1 (Homo sapiens, UniProt P36897); binding, competition with immobilised ligand).
For EGFR (Homo sapiens, UniProt P00533, T790M); kinase binding, KINOMEscan; baseline: DMSO control: remaining binding read 100%.
LRRK2 (Homo sapiens, UniProt Q5S007); binding, competition with immobilised ligand — remaining binding: 70%.
HIPK2 (Homo sapiens, UniProt Q9H2X6); binding, competition with immobilised ligand — remaining binding: 78%.
Ribosomal protein S6 kinase alpha-1, N-terminal kinase domain (RPS6KA1, Homo sapiens, UniProt Q15418); kinase binding, KINOMEscan; baseline: DMSO control — remaining binding: 96%.

Set 5
SMILES: C[C@@H]1CN(c2ccc(-c3cc(C(=O)NCCOCCOCCOCCOCCNC(=O)Cn4cc(-c5[nH]cc(C(=O)N[C@@H](CC(N)=O)c6ccc(F)c(Cl)c6)c5-c5ccc(Cl)cc5F)cn4)ccc3F)cc2NC(=O)c2c[nH]c(=O)cc2C(F)(F)F)C[C@H](C)N1C
Effect on: thermal unfolding
Technique: differential scanning fluorimetry
Tested at: 5.5 µM
Direction: higher = more unfolded
WDR5: WD repeat-containing protein 5 (WDR5, Homo sapiens, UniProt P61964)
DCAF1: DDB1- and CUL4-associated factor 1 (DCAF1, Homo sapiens, UniProt Q9Y4B6)
Chain of UniProt Q9Y4B6 (whole entry, looked up): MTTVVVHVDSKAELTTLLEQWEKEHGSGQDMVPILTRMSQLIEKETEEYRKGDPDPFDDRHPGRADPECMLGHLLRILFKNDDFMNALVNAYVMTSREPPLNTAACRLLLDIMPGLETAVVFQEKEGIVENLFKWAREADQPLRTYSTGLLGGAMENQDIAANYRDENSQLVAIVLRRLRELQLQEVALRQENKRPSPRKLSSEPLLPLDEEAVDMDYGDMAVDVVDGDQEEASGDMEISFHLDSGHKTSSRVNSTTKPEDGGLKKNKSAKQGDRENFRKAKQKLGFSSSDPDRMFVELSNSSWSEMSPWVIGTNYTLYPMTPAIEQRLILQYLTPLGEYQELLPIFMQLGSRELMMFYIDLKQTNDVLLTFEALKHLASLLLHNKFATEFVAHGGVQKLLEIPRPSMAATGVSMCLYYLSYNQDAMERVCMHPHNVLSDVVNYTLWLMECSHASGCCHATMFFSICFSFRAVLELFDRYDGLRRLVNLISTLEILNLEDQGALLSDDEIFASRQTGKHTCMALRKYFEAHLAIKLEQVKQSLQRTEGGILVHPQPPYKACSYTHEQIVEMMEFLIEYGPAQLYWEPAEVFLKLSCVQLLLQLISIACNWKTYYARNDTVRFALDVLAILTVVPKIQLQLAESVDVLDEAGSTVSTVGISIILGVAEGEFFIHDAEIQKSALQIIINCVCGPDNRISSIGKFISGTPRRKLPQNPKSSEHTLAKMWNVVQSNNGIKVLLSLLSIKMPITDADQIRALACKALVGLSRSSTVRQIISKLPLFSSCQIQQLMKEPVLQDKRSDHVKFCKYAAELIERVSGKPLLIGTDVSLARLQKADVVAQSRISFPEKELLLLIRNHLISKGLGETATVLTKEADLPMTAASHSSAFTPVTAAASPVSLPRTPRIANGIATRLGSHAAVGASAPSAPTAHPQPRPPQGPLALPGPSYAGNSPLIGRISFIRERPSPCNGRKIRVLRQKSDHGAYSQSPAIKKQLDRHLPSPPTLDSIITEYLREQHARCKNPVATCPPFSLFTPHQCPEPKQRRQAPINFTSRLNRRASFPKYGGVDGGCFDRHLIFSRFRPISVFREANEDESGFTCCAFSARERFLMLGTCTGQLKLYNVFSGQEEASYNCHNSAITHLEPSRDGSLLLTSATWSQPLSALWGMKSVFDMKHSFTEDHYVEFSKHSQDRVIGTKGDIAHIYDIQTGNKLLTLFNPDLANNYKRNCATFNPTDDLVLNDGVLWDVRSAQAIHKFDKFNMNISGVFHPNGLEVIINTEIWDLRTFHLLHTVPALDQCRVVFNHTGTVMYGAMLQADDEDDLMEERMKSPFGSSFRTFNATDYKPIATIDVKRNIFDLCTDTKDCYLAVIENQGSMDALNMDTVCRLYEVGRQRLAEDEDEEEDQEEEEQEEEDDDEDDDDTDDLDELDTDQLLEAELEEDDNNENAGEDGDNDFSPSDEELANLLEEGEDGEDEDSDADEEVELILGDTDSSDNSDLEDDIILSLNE
The “SYPRO Orange fluorescence” was 14200 a.u. (WDR5; 53.61 °C).
For WDR5; 47.2 °C: “SYPRO Orange fluorescence” read 14300 a.u.
DCAF1; 78.01 °C — “SYPRO Orange fluorescence”: 45900 a.u.
The “SYPRO Orange fluorescence” was 35000 a.u. (DCAF1; 59.41 °C).
For WDR5; 44.6 °C: “SYPRO Orange fluorescence” read 14400 a.u.
The “SYPRO Orange fluorescence” was 14200 a.u. (WDR5; 53.81 °C).
It gave 49700 a.u. for “SYPRO Orange fluorescence” (DCAF1; 74.61 °C).
DCAF1; 90.61 °C — “SYPRO Orange fluorescence”: 34500 a.u.
For DCAF1; 80.21 °C: “SYPRO Orange fluorescence” read 44000 a.u.
It gave 14400 a.u. for “SYPRO Orange fluorescence” (WDR5; 52.2 °C).
It gave 6890 a.u. for “SYPRO Orange fluorescence” (WDR5; 70.21 °C).

Set 6
Target: Cyclin-dependent kinase 12, with cyclin K (CDK12, Homo sapiens, UniProt Q9NYV4)
Chain of UniProt Q9NYV4 (whole entry, looked up): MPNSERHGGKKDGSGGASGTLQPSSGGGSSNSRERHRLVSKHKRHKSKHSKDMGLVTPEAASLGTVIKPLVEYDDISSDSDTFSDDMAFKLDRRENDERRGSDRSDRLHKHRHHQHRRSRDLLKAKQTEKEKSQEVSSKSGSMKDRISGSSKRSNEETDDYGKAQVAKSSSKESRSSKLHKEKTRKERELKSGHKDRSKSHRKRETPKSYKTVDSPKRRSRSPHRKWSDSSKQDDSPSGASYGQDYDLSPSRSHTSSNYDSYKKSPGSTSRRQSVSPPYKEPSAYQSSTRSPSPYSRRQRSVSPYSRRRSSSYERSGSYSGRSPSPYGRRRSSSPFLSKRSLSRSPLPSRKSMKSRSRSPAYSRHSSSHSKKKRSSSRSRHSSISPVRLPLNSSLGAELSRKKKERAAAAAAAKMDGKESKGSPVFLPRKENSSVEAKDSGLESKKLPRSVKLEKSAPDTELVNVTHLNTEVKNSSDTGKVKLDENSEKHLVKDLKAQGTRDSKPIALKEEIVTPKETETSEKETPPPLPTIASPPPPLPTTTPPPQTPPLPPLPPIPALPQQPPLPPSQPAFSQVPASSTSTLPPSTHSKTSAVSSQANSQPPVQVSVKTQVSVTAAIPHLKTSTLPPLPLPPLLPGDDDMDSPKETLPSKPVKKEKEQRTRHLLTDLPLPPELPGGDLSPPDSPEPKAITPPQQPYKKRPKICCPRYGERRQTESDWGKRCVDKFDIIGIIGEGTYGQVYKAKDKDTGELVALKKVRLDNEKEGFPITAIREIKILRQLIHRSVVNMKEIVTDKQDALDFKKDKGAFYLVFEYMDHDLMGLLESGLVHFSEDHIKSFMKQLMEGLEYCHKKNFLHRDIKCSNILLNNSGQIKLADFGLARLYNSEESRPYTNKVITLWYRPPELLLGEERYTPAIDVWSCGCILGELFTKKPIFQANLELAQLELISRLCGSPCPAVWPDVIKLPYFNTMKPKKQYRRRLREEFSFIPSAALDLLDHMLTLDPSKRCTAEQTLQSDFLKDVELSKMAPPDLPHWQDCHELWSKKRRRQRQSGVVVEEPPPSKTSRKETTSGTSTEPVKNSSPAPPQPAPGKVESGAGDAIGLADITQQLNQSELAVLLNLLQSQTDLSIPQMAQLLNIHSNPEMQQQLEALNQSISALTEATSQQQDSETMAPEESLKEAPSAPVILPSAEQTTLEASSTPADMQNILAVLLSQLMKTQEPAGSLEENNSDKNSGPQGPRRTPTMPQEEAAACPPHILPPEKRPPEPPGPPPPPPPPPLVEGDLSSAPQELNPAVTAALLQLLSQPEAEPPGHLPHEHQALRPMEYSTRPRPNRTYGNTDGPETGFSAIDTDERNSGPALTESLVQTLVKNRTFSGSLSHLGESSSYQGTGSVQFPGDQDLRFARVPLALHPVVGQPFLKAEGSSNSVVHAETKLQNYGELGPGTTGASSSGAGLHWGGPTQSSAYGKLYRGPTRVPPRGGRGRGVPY
Effect on: kinase activity
Mode: inhibitor
Technique: ADP-Glo
Tested at: 2 µM
For `CCn1cnc2c(NCc3nc4cc(Cl)c(Cl)cc4[nH]3)nc(N3CCN(C(=O)c4ccccn4)CC3)nc21`, the inhibition was 87.6%.
`CCn1cnc2c(NCc3nc4cc(Cl)c(Cl)cc4[nH]3)nc(N3CCN(c4ccccn4)CC3)nc21` has an inhibition of 66.6%.
With `CCn1cnc2c(NCc3nc4cc(Cl)c(Cl)cc4[nH]3)nc(N3CCN(C(=O)c4ccccc4)CC3)nc21` the inhibition was 91.4%.
`CCn1cnc2c(NCc3nc4ccc(F)c(F)c4[nH]3)nc(N3CCn4ncnc4C3)nc21` gave an inhibition of 87.1%.
`CC(=O)N1CCN(c2nc(NCc3nc4cc(Cl)c(Cl)cc4[nH]3)c3ncn(-c4cnn(C)c4)c3n2)CC1` gave an inhibition of 87.6%.
The inhibition of `CCn1cnc2c(NCc3nc4cc(Cl)c(Cl)cc4[nH]3)nc(N3CCN(C(=O)[C@H](C)NC(C)=O)CC3)nc21` is reported as 83.3%.
`Cn1cc(-n2cnc3c(NCc4nc5cc(Cl)c(Cl)cc5[nH]4)nc(N4CCNCC4)nc32)cn1` gave an inhibition of 72.6%.
`CCn1cnc2c(NCc3nc4cc(Cl)c(Cl)cc4[nH]3)nc(N3CCN(C(=O)c4ccncc4)CC3)nc21` gave an inhibition of 91.9%.
`CC(=O)N1CCN(c2nc(NCc3nc4cc(Cl)c(Cl)cc4[nH]3)c3ncn(C)c3n2)CC1` gave an inhibition of 67.8%.

Further values, each from its own experiment
`Cc1ncsc1-c1ccc(C2(NC(=O)C3CC(O)CN3C(=O)C(NC(=O)c3ccc(COc4c(-c5c(C)c(F)cc6[nH]ncc56)c(C5CC5)cc5c(N6CC7CC6CN7)nc(OC6CCOCC6)nc45)cc3)C(C)C)CC2)cc1` (centres unmarked) gave a kon of 77600 M⁻¹ s⁻¹ (von Hippel-Lindau disease tumor suppressor, with Elongin B/C (VHL, Homo sapiens, UniProt P40337); SPR, single-cycle; immobilized VCB complex; binary, geometric mean).
`N#C/C=C/CNCCCCN1c2ccccc2CCc2ccc(Cl)cc21.O=C(O)/C=C\C(=O)O` gave an intrinsic clearance of 175 ± 93.1 µL/min/mg protein (mouse liver microsomes; 1 µM).
`Cc1ccc(O)c(C)c1-c1cnc2[nH]c(-c3cnc(N4CCC(CN5CCN(c6ccc7c(c6)C(=O)N(C6CCC(=O)NC6=O)C7=O)CC5)CC4)nc3)cc2c1C#N` (centres unmarked) gave a bioavailability of 67% (female CD-1 mouse, plasma; oral, 60 mg/kg).
For `Cn1ncc2c1N(CCCCNC/C=C/C#N)c1cc(Cl)ccc1CC2.O=C(O)/C=C\C(=O)O`, the intrinsic clearance was 89.6 ± 14.7 µL/min/mg protein (human liver microsomes; 1 µM).
The ERK1/2 phosphorylation of `CCN1CCN(Cc2ccc(COc3c(-c4c(C)c(F)cc5[nH]ncc45)c(C4CC4)cc4c(N5C[C@@H]6C[C@H]5CN6)nc(OC5CCOCC5)nc34)cc2)C(=O)C1` is reported as 137% and 153% and 142% (A-375 (KRAS wild type); in-cell ELISA, item: phospho-ERK1/2; 300 nM, 2 h).
`Cc1nc(C)c(C=[N+]([O-])C(C)(C)C)nc1C` gave a pSer9-GSK3β/total GSK3β of 290 and 433 and 288 and 509 (Western blot; MPTP mouse model; 90 mg/kg).
For `Cc1ccc(O)c(C)c1-c1cnc2[nH]c(-c3cnc(N4CCC5(CC4)CC(N4CCN(c6ccc(N[C@H]7CCC(=O)NC7=O)cc6F)CC4)CO5)nc3)cc2c1C#N` (single isomer, unassigned), plasma concentration read “not detected” (CD-1 mouse; intravenous, dose not given, 24 h).
`CN(C)C(=O)/C=C/CNCCCN1c2ccccc2CCc2ccc(Cl)cc21.Cl` gave an inhibition of 14.7% (E3 ubiquitin-protein ligase NEDD4 (Homo sapiens, UniProt P46934); enzyme activity, inhibitor, TR-FRET; 11 µM).
`Cc1ccc(O)c(C)c1-c1cnc2[nH]c(-c3cnc(N4CCC(CCN5CCN(c6ccc(NC7CCC(=O)NC7=O)cc6F)CC5)CC4)nc3)cc2c1C#N` (centres unmarked) gave a bioavailability of 31.6% (female CD-1 mouse, plasma; oral, 60 mg/kg).
The IC50 of `CCN1/C(=C/C=C2\CCCC(/C=C/C3=[N+](CC)c4ccccc4C3(C)C)=C2NCCCCN2CCC(Nc3nc4ccccc4n3Cc3ccc(F)cc3)CC2)C(C)(C)c2ccccc21` is reported as 30.4 nM (KCNH2 (Homo sapiens, UniProt Q12809); ligand displacement, radioligand; HEK293; 80 min, cell membranes).
With `Cc1ncsc1-c1ccc(C2(NC(=O)C3CC(O)CN3C(=O)C(NC(=O)c3ccc(COc4c(-c5c(C)c(F)cc6[nH]ncc56)c(C5CC5)cc5c(N6CC7CC6CN7)nc(OC6CCOCC6)nc45)cc3)C(C)(C)C)CC2)cc1` (centres unmarked) the DC50 was 1080 nM and 318 nM and 925 nM (GTPase KRas (KRAS, Homo sapiens, UniProt P01116, G12D); degrader, In-Cell ELISA; AsPC-1 (KRAS G12D); 24 h).
`CCOC(=O)/C=C/CNCCCCN1c2cc(Cl)ccc2CCc2cnn(C)c21.O=C(O)/C=C\C(=O)O` gave a viability of 105% and 101% (NCI-H292; CellTiter-Glo; 0.005 µM, 72 h).
`Cc1ccc(O)c(C)c1-c1cnc2[nH]c(-c3cnc(N4CCC(CN5CCN(c6ccc(NC7CCC(=O)NC7=O)cc6F)CC5)CC4)nc3)cc2c1C#N` (centres unmarked) gave an AUC(0-last) of 1040 ng·h/mL (cynomolgus monkey, male, plasma; oral, 10 mg/kg).

For quick reference, copied from above (set 1):
The “mRNA level ratio” was 15.1 (A549; DNA microarray, item: GZMK; 10 µM; baseline: untreated cells).
The “mRNA level ratio” was 54.7 (SK-OV-3; microarray, item: CCL8; 10 µM; baseline: untreated).
It gave 6.3 for “mRNA level ratio” (SK-OV-3; microarray, item: GADD45A; 50 µM; baseline: untreated).
For SK-OV-3; DNA microarray, item: ACTB; 10 µM; baseline: untreated cells: “mRNA level ratio” read 0.772.
The “mRNA level ratio” was 2.21 (A549; microarray, item: ISG20L1; 50 µM; baseline: untreated).
It gave 1 for “mRNA level ratio” (A549; DNA microarray, item: CCL22; 50 µM; baseline: untreated cells).
It gave 1.14 for “mRNA level ratio” (A549; microarray, item: ADAMTS14; 50 µM; baseline: untreated).
PANC-1; microarray, item: ADAMTS14; 10 µM; baseline: untreated — “mRNA level ratio”: 0.757.
It gave 0.46 for “mRNA level ratio” (PANC-1; microarray, item: ADAMTS8; 50 µM; baseline: untreated).
It gave 0.771 for “mRNA level ratio” (A549; microarray, item: ACTA2; 50 µM; baseline: untreated).
